Assay results collected from several papers.
A part holds a random share of what one study measured. Changes are numbered by the printed parent chain.

Study 1 — target: CCNE1, cyclin fold, Cln2 fusion (human); method: yeast growth competition, sequencing; medium: yeast; notes: strong parent motif; reference: not given; direction: higher = stronger binding
Starting sequence: NPAT docking peptide (human); PCHRRVLCFDSTT; partner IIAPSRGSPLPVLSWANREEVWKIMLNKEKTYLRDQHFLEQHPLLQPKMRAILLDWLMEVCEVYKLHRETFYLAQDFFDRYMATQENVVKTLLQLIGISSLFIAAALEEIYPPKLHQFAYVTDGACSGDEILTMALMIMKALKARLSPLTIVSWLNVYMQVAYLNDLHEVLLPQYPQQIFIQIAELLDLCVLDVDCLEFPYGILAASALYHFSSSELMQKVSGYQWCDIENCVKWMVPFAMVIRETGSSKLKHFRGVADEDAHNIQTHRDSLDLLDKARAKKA
Change | normalised enrichment score
D10A | 1.24
V6A | 0.877
R4A | 1.74
R5K F9L | 0.382
T13A | 1.26
H3A | 3.45
L7A | -0.206

Study 2 — method: RNA Bind-n-Seq; form: RNA; medium: in vitro; concentration: 200 nM; notes: whole 134-nt RNA, ends assumed; added: 150 mM KCl; reference: input library; direction: higher = stronger binding
Target: Fragile X messenger ribonucleoprotein 1, C-terminal low-complexity region (Fmr1, Mus musculus, UniProt P35922)
Oligonucleotide | log2 enrichment
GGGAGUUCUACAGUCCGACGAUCGUCCUGUGCUACACAUCGUAUGUACCGAAUCGGGGAGGGGUUUUUGGGGUUUUUGGGGAAAGUAUUAUGUUACGCCGUUCGGAUCUGCACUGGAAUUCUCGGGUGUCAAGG | 0.699
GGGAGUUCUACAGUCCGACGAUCUGGCCCUGGUGGCAUGCGGGGAGGAAGAGGUGGCCUCAUGGAUCGUGGUGGUCCCGGUGGAAUGUUCAGAGGUGGCCGUGGUGGAGACUGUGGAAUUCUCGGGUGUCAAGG | -0.173
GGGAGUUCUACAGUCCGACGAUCUGUGCUACACAUCGUAUGUACCGAAUCGGGGCCCCCCCGGGCCCCCCCGGGGCCCCCCCGGGGAAAGUAUUAUGUUACGCCGUUCGGAUCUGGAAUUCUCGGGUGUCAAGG | -1.4
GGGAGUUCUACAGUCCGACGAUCUCCUUUUUUUUUUUCUUUGAAUGUAUUUAUUUCUUGUAGUCUACUGGUGCUGUUGUGACGGAGAGCCAGACGUACAAAAACCGAGCUGGUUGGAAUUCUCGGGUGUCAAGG | 0.554
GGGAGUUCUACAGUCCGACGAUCCAAGUCCUGUGCUACACAUCGUAUGUACCGAAUCGGAAAAAGGUGGUUUUUUUGGAAAGUAUUAUGUUACGCCGUUCGGAUCUGCACUUCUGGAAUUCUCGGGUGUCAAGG | -0.81
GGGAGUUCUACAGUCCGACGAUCAGUCCUGUGCUACACAUCGUAUGUACCGAAUCGGGAAAAGGGAAAAGGGAAAAGGGGAAAGUAUUAUGUUACGCCGUUCGGAUCUGCACUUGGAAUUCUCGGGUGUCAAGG | 0.298
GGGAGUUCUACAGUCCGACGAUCCAAGUCCUGUGCUACACAUCGUAUGUACCGAAUCGGGAAAGGAAAGGGGAAAGGGAAAGUAUUAUGUUACGCCGUUCGGAUCUGCACUUCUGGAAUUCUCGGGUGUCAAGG | 0.205
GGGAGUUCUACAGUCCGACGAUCCCUCAAGUCCUGUGCUACACAUCGUAUGUACCGAAUCGGGAGGAGGGGAGGGAAAGUAUUAUGUUACGCCGUUCGGAUCUGCACUUCCAGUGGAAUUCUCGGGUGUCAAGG | 1.32
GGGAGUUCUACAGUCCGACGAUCUGGCCCUGGUGGCAUGCGGGGAGGAAGAGGUGGCCUCAUGGAUCGUGGUGGUCCCGGUGGAGUGUUCAGAGGUGGCCGUGGUGGAGACAGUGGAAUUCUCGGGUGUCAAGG | 0.129
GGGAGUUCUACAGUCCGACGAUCUCAAGUCCUGUGCUACACAUCGUAUGUACCGAAUCGGGCCGGGGCCGGGCCGGGAAAGUAUUAUGUUACGCCGUUCGGAUCUGCACUUCCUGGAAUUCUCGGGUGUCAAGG | 0.261
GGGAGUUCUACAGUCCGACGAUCUGUGCUACACAUCGUAUGUACCGAAUCGGGGAAAAAAAGGGAAAAAAAGGGAAAAAAAGGGGAAAGUAUUAUGUUACGCCGUUCGGAUCUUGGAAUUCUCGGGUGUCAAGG | -0.316
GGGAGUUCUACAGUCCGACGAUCCCUCAAGUCCUGUGCUACACAUCGUAUGUACCGAAUCGGCGGGCGGGGCGGGAAAGUAUUAUGUUACGCCGUUCGGAUCUGCACUUCCAGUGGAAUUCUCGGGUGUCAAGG | 0.626
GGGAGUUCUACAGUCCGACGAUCCUGUGCUACACAUCGUAUGUACCGAAUCAAACCCCCCCAAAUUUUUUUAAACCCCCCCAAAAAAGUAUUAUGUUACGCCGUUCGGAUCUGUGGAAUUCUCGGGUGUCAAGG | 0.358

Study 3 — method: universal PBM; form: double-stranded DNA, one strand shown; medium: in vitro; concentration: 600 nM; direction: higher = stronger binding
Target: Sal-like protein 4, full length isoform A (SALL4, Homo sapiens, UniProt Q9UJQ4, residues 1-1053)
Sequence of UniProt Q9UJQ4 (whole entry, looked up): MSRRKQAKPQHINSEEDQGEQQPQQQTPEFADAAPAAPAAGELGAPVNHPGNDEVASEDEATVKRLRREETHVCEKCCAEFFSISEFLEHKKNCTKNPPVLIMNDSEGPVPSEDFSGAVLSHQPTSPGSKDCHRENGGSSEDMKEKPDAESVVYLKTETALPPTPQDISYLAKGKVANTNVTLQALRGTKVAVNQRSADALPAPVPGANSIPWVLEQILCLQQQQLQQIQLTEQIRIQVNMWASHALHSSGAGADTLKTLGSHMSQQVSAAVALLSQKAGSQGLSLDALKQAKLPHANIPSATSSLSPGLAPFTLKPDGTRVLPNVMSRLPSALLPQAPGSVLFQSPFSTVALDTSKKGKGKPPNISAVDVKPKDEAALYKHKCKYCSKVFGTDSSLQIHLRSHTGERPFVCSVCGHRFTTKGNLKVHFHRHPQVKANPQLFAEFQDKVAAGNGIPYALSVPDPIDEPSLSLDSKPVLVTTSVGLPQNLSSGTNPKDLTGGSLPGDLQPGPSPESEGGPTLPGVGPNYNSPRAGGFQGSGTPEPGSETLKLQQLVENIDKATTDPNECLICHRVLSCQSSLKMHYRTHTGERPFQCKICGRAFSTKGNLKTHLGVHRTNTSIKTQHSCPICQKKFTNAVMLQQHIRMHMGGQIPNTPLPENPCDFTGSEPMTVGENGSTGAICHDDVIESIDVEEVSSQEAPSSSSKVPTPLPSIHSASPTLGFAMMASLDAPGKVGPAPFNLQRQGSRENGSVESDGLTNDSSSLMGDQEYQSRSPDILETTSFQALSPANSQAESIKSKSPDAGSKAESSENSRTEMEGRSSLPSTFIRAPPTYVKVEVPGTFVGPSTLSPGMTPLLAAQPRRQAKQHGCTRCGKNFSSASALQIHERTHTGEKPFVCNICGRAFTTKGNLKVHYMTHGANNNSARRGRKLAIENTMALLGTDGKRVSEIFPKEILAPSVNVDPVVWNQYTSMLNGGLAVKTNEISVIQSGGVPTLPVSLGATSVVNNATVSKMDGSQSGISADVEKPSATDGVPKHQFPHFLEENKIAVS
Notes: 8-mer, flanks averaged, mean of replicates
Oligonucleotide | E-score
CCTTCTTA | 0.00279
GGCCTGTA | -0.214
CCCAGTAA | -0.0203
ATTGTTGA | 0.228
CAGGGCGG | -0.287
AAGGAACG | -0.0567
AAGAATGG | -0.00588
GATCTCGC | -0.0853
GGCTCCCC | -0.362
CTAGGGGC | -0.273

Single results of other studies
Substance | target | assay | test system | setting | scale | endpoint | value
PhoQ, residues 284 288 289 292 302 303 TYGVAM | PhoP, residues 12 14 15 18 19 IFFTR (Escherichia coli, UniProt P23836) | Sort-seq, refers to: YFP reporter | E. coli | PhoQ-PhoP variant library, added: 10 µM Mg2+ | reference: high Mg2+ state, higher = stronger signaling | fold induction | 2.31

Some of these lines once more (study 2):
Oligonucleotide | log2 enrichment
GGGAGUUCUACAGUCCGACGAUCCCUCAAGUCCUGUGCUACACAUCGUAUGUACCGAAUCGGGAGGAGGGGAGGGAAAGUAUUAUGUUACGCCGUUCGGAUCUGCACUUCCAGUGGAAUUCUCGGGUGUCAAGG | 1.32
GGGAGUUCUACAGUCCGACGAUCGUCCUGUGCUACACAUCGUAUGUACCGAAUCGGGGAGGGGUUUUUGGGGUUUUUGGGGAAAGUAUUAUGUUACGCCGUUCGGAUCUGCACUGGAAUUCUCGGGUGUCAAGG | 0.699
